# Experimental data gathered from unrelated publications.
# Parts stem from different laboratories: compare values within a part only.
# Chain of UniProt Q9UF33 (whole entry, looked up): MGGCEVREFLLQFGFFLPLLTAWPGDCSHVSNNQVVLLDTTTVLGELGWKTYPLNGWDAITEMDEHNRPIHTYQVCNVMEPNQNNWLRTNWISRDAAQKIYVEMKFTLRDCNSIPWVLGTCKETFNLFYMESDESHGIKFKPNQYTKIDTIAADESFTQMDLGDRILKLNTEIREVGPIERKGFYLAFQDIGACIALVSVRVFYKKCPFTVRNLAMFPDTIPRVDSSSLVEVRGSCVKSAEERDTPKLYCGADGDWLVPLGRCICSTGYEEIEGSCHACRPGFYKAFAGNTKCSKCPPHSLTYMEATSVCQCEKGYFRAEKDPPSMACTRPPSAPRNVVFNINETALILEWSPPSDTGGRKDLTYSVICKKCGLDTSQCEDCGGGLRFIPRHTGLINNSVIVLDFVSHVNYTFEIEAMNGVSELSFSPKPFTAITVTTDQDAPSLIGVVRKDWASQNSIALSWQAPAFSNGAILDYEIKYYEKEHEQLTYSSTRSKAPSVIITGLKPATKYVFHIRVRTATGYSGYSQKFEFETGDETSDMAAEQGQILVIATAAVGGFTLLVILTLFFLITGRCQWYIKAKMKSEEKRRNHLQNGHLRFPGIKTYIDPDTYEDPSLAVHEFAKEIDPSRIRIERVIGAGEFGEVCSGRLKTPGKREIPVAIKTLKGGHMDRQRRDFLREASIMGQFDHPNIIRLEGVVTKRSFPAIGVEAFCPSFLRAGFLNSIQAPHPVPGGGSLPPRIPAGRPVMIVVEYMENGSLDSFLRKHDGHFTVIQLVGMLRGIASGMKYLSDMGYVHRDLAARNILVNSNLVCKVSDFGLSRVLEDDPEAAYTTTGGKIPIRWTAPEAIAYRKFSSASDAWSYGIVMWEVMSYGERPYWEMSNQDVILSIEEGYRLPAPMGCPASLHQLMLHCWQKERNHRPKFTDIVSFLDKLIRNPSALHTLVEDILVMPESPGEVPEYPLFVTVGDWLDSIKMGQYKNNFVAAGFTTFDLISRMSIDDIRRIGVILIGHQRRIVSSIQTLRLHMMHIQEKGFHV
# Chain of UniProt Q9UM73 (whole entry, unmodified, looked up): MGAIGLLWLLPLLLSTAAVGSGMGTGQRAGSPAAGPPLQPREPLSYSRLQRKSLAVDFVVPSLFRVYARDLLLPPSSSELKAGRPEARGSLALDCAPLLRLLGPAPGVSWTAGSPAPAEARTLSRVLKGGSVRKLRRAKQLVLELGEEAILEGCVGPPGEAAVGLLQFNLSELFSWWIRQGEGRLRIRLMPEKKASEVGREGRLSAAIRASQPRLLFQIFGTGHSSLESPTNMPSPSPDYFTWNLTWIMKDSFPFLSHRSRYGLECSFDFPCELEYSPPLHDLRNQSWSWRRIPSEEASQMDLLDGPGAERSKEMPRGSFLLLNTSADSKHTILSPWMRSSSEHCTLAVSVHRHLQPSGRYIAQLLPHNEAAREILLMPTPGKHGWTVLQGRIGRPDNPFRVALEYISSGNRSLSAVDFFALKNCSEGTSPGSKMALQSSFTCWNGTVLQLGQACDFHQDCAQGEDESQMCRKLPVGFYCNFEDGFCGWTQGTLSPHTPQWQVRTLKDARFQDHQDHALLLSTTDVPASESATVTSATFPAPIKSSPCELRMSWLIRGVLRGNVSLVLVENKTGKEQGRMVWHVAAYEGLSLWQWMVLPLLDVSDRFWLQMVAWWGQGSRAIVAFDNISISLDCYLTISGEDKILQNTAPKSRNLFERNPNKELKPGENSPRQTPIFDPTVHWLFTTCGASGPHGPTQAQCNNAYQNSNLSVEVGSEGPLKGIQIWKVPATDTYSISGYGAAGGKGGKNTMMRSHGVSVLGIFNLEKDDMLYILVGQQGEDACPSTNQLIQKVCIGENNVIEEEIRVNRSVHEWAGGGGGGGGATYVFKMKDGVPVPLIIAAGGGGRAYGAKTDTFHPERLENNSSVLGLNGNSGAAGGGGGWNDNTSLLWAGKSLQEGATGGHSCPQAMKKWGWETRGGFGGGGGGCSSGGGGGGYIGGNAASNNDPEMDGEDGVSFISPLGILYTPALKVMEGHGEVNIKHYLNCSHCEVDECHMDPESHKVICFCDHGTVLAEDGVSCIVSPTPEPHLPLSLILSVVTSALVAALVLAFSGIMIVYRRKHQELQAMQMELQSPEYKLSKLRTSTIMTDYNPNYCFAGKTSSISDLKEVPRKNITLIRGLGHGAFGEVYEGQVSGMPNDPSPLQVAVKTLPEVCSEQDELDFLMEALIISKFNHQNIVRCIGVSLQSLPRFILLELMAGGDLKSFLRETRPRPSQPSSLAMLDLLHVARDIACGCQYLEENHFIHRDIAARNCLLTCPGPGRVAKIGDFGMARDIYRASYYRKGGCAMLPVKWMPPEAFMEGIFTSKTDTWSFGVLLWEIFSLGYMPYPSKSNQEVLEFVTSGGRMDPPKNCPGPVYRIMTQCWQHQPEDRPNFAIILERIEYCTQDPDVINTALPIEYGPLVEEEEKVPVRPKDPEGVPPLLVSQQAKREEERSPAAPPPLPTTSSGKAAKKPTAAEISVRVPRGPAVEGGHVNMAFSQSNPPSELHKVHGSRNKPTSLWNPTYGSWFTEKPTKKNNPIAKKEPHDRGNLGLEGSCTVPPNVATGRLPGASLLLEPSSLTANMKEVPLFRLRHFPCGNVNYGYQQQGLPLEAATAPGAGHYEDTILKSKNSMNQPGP
# Chain of UniProt Q05513 (whole entry, looked up): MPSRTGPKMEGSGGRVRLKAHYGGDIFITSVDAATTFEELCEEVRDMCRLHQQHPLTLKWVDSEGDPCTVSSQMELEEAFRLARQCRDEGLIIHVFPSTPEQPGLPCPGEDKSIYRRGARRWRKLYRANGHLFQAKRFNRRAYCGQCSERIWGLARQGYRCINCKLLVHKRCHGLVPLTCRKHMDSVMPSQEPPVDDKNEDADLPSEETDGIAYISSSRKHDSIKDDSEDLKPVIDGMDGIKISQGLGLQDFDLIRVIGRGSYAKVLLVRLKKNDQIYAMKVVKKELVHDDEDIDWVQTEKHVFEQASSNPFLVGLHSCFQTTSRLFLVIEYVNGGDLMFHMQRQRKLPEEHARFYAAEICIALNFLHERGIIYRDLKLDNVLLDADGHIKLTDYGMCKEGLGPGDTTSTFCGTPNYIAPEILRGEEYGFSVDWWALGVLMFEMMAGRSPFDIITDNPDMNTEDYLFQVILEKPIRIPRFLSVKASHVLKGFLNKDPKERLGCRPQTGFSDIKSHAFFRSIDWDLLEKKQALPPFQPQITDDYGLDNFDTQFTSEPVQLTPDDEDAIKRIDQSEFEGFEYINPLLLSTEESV
# Chain of UniProt Q02779 (whole entry, looked up): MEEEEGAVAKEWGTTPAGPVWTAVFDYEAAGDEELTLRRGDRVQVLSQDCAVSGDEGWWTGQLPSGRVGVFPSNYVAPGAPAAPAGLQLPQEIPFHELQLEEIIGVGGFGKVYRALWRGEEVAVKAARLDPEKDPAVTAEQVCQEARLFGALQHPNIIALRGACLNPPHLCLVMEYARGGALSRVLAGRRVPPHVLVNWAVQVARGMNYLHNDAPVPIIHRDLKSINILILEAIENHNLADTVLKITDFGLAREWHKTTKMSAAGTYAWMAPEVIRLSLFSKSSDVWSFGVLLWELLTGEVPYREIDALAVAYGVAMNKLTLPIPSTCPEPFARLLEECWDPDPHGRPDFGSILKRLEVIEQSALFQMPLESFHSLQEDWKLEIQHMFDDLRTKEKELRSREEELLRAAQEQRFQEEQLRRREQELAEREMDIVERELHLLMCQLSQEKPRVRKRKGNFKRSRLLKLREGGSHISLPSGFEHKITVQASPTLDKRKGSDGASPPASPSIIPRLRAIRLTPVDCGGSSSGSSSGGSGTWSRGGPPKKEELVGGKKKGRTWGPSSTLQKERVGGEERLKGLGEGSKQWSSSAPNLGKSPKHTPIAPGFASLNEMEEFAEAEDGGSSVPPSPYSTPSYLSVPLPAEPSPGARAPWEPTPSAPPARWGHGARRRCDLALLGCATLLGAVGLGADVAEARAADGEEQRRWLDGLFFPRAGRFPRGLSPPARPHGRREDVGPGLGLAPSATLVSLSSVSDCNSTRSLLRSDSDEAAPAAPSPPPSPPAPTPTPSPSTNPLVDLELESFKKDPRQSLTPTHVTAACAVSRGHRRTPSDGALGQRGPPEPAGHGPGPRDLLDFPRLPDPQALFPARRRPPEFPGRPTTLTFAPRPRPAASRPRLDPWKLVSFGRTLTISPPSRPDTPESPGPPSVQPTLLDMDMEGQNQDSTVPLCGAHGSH
# Chain of UniProt P07332 (whole entry, looked up): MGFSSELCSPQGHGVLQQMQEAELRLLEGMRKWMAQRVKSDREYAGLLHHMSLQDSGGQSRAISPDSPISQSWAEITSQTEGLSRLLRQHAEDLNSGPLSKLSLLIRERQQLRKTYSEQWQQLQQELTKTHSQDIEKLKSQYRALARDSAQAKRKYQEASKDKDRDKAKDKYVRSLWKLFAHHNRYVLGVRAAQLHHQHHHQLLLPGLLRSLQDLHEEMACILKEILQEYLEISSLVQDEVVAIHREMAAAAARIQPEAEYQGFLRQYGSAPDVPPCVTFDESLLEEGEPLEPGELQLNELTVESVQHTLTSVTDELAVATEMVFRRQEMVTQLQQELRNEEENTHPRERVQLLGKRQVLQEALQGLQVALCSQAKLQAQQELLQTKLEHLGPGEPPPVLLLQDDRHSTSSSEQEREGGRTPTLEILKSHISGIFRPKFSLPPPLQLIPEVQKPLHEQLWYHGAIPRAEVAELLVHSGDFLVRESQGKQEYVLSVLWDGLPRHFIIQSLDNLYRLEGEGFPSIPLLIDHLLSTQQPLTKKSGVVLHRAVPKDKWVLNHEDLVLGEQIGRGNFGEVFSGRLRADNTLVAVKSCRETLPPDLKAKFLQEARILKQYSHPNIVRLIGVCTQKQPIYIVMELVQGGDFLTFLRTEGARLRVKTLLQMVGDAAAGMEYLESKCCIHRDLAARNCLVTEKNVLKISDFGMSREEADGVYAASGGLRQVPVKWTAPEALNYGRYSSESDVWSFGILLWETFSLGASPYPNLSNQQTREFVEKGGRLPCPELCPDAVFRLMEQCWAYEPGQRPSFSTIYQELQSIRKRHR

# Study 1 — SMILES: CCN(c1nc(N)c(C(=O)N=C(N)N)nc1Cl)C(C)C; read-out: β-arrestin recruitment; mode: agonist; technique: PRESTO-Tango; tested at: 10 µM; reference: untreated
target,fold over basal
"Probable G-protein coupled receptor 21 (GPR21, Homo sapiens, UniProt Q99679)",1.07
"Adhesion G protein-coupled receptor F4 (ADGRF4, Homo sapiens, UniProt Q8IZF3)",1
"Adhesion G protein-coupled receptor A3 (ADGRA3, Homo sapiens, UniProt Q8IWK6)",0.9
"Nociceptin receptor (OPRL1, Homo sapiens, UniProt P41146)",0.33
"VIPR2 (Homo sapiens, UniProt P41587)",0.33 fold
"CYSLTR1 (Homo sapiens, UniProt Q9Y271)",1.26
"MC5R (Homo sapiens, UniProt P33032)",1.21
"PTGER3 (Homo sapiens, UniProt P43115)",0.84
"CCR6 (Homo sapiens, UniProt P51684)",1.02
"PTH2R (Homo sapiens, UniProt P49190)",0.66

# Study 2 — read-out: enzyme activity; mode: inhibitor; tested at: 0.5 µM; reference: control
# Compound: Cc1nc(Nc2ncc(C(=O)Nc3c(C)cccc3Cl)s2)cc(N2CCN(CCO)CC2)n1
target,remaining activity
"PRKCZ (Homo sapiens, UniProt Q05513)",101%
"FES (Homo sapiens, UniProt P07332)",110%
"TYRO3 (Homo sapiens, UniProt Q06418)",87.6%
"CAMKK1 (Homo sapiens, UniProt Q8N5S9)",99.7%
"PAK5 (Homo sapiens, UniProt Q9P286)",91.1%
"BRSK2 (Homo sapiens, UniProt Q8IWQ3)",99.2%
"MARK1 (Homo sapiens, UniProt Q9P0L2)",107%
"EPHA6 (Homo sapiens, UniProt Q9UF33)",50.5%
"MUSK (Homo sapiens, UniProt O15146)",106%
"PAK1 (Homo sapiens, UniProt Q13153)",102%
"SIK2 (Homo sapiens, UniProt Q9H0K1)",1.91%
"PAK6 (Homo sapiens, UniProt Q9NQU5)",136%
"Cyclin-dependent kinase 5, with p35 (CDK5, Homo sapiens, UniProt Q00535)",101%
"SGK2 (Homo sapiens, UniProt Q9HBY8)",107%
"TEC (Homo sapiens, UniProt P42680)",11.3%
"PRKCQ (Homo sapiens, UniProt Q04759)",97.3%
"PIM1 (Homo sapiens, UniProt P11309)",102%
"SRPK1 (Homo sapiens, UniProt Q96SB4)",101%
"IGF1R (Homo sapiens, UniProt P08069)",97.5%
"CLK1 (Homo sapiens, UniProt P49759)",102%
"ACVRL1 (Homo sapiens, UniProt P37023)",15.9%

# Study 3 — read-out: binding; tested at: 1 µM
# Compound: CN1CCN(C(=O)c2ccc(NC(=O)Nc3ccc(N(C)c4ccnc(Nc5ccc(CS(C)(=O)=O)cc5)n4)cc3)cc2)CC1
target,assay,remaining binding [%]
"FLT3 (Homo sapiens, UniProt P36888, R834Q)",,0
"GRK1 (Homo sapiens, UniProt Q15835)",,100
"MAP3K10 (Homo sapiens, UniProt Q02779)",,82
"PNCK (Homo sapiens, UniProt Q6P2M8)",,85
"EIF2AK2 (Homo sapiens, UniProt P19525)",,100
"DCLK3 (Homo sapiens, UniProt Q9C098)",competition with immobilised ligand,100
"CILK1 (Homo sapiens, UniProt Q9UPZ9)",,44
"HIPK1 (Homo sapiens, UniProt Q86Z02)",competition with immobilised ligand,72

# Study 4 — tested at: 1 µM
# SMILES: CCC(=O)N[C@H]1CC[C@@H](C(=O)N(C)c2ccc(-c3nc4ccccc4o3)cc2)C1
target,assay,remaining binding
"FLT3 (Homo sapiens, UniProt P36888, D835Y)","cell-free assay, competition with immobilised ligand",100%
"STK17B (Homo sapiens, UniProt O94768)","cell-free assay, competition with immobilised ligand",84%
"LCK (Homo sapiens, UniProt P06239)","cell-free assay, competition with immobilised ligand",89%
"ALK (Homo sapiens, UniProt Q9UM73)","cell-free assay, competition with immobilised ligand",86%
"CDK19 (Homo sapiens, UniProt Q9BWU1)",competition binding,100%
"ALK (Homo sapiens, UniProt Q9UM73, C1156Y)","cell-free assay, competition with immobilised ligand",100%
"CDKL3 (Homo sapiens, UniProt Q8IVW4)","cell-free assay, competition with immobilised ligand",100%
"PDGFRB (Homo sapiens, UniProt P09619)","cell-free assay, competition with immobilised ligand",89%
"BMPR1B (Homo sapiens, UniProt O00238)","cell-free assay, competition with immobilised ligand",91%
"EPHA6 (Homo sapiens, UniProt Q9UF33)","cell-free assay, competition with immobilised ligand",76%

# Excerpt of the above (study 3):
target,assay,remaining binding [%]
"PNCK (Homo sapiens, UniProt Q6P2M8)",,85
"EIF2AK2 (Homo sapiens, UniProt P19525)",,100
"DCLK3 (Homo sapiens, UniProt Q9C098)",competition with immobilised ligand,100
